Measured values collected from several papers.
A part holds a random share of what one study measured.
UniProt P42680, sequence (whole entry, looked up): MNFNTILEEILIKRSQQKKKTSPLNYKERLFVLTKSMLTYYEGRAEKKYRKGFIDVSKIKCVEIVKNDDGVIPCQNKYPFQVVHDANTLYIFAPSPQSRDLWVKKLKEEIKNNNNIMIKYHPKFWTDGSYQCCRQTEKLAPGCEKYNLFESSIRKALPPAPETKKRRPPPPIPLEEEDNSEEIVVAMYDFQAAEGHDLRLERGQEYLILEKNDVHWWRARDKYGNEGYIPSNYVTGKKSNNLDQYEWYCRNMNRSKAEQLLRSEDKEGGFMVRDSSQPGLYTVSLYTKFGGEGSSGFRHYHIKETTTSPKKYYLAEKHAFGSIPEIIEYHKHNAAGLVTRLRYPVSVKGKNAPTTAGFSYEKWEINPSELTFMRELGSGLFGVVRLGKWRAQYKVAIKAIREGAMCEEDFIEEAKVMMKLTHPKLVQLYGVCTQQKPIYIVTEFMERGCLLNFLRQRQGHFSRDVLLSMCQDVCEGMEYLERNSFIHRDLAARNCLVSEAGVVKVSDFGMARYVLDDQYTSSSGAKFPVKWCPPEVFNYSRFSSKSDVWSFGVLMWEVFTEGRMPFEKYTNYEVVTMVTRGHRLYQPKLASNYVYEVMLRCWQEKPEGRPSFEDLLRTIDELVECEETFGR
UniProt Q12809, sequence (whole entry, looked up): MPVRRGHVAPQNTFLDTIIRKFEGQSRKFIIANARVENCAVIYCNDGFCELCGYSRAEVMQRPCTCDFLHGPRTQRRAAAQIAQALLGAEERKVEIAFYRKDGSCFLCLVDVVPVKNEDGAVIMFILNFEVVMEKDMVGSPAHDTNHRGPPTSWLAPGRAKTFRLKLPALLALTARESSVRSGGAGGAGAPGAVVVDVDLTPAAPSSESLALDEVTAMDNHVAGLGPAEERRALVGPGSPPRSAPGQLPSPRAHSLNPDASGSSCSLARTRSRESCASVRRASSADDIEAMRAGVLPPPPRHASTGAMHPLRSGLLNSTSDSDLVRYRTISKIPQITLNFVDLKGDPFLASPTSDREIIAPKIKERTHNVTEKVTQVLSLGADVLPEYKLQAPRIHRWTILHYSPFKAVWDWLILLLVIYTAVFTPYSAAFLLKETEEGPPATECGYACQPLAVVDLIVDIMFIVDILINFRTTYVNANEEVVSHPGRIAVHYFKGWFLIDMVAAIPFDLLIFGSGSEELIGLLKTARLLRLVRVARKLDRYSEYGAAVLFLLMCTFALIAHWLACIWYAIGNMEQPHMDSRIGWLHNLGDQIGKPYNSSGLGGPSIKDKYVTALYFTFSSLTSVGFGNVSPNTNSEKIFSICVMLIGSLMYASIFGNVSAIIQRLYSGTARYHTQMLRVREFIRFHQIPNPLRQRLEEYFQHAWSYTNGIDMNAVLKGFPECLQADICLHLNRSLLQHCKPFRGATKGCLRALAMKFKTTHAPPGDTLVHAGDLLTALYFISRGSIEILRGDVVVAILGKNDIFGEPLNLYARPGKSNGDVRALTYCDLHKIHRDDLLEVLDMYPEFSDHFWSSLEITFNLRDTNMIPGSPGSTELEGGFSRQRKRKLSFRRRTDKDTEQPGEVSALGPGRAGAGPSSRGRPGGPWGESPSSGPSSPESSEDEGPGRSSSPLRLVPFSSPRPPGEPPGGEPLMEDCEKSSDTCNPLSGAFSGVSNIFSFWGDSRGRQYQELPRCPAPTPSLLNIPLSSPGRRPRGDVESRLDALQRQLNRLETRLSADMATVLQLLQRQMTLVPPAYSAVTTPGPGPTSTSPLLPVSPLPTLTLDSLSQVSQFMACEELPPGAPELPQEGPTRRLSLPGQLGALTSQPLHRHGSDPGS
UniProt P49759, sequence (whole entry, looked up): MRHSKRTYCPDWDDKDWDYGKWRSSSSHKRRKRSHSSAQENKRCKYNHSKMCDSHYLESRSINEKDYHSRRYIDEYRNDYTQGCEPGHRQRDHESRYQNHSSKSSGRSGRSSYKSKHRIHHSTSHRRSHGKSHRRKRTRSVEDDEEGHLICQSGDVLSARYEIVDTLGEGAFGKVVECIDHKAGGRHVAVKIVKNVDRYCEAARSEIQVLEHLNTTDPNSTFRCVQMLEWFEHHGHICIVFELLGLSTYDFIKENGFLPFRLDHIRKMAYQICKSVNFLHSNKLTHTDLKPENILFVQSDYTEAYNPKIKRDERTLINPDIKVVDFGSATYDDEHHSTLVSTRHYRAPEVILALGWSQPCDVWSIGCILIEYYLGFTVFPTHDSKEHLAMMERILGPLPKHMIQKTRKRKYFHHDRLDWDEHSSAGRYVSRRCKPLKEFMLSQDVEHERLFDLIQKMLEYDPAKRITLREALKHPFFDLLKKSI
UniProt Q13153, sequence (whole entry, looked up): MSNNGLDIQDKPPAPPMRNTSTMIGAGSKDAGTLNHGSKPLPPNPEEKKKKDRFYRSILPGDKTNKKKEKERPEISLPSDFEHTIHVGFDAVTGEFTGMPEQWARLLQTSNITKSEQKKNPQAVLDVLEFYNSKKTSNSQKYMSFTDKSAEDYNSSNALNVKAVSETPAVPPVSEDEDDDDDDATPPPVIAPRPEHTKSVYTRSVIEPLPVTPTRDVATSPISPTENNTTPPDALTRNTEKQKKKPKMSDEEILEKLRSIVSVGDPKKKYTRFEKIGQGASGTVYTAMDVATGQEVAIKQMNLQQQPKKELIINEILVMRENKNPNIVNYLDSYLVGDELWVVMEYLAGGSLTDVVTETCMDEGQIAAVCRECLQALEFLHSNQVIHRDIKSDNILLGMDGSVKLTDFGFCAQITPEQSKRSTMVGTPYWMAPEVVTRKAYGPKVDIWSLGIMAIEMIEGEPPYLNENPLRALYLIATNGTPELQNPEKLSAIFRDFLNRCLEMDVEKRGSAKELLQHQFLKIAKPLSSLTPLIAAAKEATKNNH
UniProt Q96SB4, sequence (whole entry, looked up): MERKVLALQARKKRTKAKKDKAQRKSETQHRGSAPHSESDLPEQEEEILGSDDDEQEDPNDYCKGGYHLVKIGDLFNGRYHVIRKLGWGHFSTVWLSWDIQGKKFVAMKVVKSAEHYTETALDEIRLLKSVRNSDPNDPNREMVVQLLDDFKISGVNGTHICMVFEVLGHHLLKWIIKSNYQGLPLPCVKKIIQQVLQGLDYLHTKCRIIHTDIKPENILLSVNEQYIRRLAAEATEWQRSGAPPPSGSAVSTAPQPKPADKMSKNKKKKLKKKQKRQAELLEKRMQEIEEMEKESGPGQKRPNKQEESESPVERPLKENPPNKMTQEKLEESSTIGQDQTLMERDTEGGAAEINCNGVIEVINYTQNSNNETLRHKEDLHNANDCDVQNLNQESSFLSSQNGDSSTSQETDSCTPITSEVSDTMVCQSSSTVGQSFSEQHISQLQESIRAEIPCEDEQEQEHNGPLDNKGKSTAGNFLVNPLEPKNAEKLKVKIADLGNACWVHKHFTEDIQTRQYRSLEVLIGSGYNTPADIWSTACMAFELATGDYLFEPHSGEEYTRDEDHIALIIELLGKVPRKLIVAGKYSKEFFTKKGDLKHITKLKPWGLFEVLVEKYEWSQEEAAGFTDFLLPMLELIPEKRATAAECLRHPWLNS
UniProt Q14012, sequence (whole entry, looked up): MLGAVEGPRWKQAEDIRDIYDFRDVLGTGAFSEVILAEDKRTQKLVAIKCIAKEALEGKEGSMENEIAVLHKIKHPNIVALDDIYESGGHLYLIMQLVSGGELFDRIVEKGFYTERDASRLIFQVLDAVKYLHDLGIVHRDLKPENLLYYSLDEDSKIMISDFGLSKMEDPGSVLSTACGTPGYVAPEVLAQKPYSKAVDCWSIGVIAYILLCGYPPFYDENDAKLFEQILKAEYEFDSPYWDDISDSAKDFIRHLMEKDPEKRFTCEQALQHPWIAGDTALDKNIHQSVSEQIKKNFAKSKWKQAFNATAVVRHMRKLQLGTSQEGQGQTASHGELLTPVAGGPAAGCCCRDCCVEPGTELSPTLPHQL
UniProt Q8N5S9, sequence (whole entry, looked up): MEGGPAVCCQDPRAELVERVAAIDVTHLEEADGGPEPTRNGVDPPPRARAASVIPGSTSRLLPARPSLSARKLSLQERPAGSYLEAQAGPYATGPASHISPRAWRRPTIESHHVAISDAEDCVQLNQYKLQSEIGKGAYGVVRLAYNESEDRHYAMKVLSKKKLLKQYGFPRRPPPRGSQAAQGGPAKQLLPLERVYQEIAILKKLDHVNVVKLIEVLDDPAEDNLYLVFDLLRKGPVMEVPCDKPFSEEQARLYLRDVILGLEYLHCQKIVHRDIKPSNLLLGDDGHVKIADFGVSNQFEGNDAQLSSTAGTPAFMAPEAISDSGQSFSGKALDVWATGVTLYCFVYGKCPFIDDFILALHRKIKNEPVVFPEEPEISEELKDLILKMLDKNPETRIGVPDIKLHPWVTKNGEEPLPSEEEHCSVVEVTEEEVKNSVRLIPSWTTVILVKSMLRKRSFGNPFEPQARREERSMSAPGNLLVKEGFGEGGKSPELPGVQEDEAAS

Study 1
Target: Alpha-1B adrenergic receptor (ADRA1B, Homo sapiens, UniProt P35368)
UniProt P35368, sequence (whole entry, looked up): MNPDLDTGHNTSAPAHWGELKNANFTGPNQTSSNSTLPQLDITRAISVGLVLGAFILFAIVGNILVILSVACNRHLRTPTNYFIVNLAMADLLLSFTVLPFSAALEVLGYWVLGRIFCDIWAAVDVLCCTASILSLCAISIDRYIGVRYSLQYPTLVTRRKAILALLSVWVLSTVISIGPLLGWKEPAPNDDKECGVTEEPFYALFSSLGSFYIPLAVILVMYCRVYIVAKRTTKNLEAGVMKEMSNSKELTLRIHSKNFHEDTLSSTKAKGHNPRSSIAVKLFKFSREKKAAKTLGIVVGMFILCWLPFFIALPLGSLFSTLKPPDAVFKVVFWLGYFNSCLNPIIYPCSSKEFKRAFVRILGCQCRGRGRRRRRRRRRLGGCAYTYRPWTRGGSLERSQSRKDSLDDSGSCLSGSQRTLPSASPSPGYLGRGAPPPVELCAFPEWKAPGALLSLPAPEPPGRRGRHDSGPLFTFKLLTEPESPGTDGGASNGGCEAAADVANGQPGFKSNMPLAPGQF
Effect on: ligand displacement
Tested at: 10 µM
Structure (SMILES)	inhibition [%]
CCC(=NO)C(C)=Cc1ccc(F)c(C)c1	0.56
Cc1ccc(-c2cnc([C@@]3(O)CC[C@H](C(=O)O)C(C)(C)C3)s2)cc1Nc1cccc(C(F)(F)F)n1	7.9
O=c1nc(-c2ccccn2)sc2ccccc12	9.84
C[C@H](c1ccnc(Nc2nc3ccc(-c4cc(N(C)C)ncn4)cc3[nH]2)c1)N1CCN(C(=O)CC(F)(F)F)CC1	2.95
Cc1ncc(-c2cc(Cl)ccc2F)cc1-n1c(=O)n(CC(N)=O)c2ccccc21	5.45
N#CC1(c2ccccn2)CCN(Cc2cc(C(=O)N3CCCC3)c(=O)n3ccccc23)CC1	1.36
c1ccc(N2CCN(Cc3nc4ccccc4[nH]3)CC2)nc1	23.5
Cn1cc(Cl)c2c(Oc3c(F)cc(Nc4cc(Cl)nc(N)n4)cc3F)ccnc21	18.3
CCC(F)(F)c1cc(N2CCC(S(C)(=O)=O)CC2)nc2sc(C(N)=O)c(N)c12	-0.02
COc1cc(N[C@@H]2CCCC[C@]2(O)C(F)(F)F)ccc1F	0.41
CCc1ccccc1C(=O)Nc1n[nH]c2c(C)c(F)c(C3C(C#N)=C(C)N(C)C(C)=C3C#N)cc12	-9.38
Cc1cc(Nc2nccc(C)n2)cc(-c2cnc([C@@]3(O)CC[C@H](C(=O)O)C(C)(C)C3)s2)c1	3.23

Study 2
Host: human
Sample: microsomes or S9
Tested at: 2 µM
Time: 0.5 h
SMILES	remaining compound
CN1CC[C@H]2CN(C(=O)c3c4c(nn3C)CCCC4)C[C@H]21	> 100%
CCN(CC)S(=O)(=O)c1ccc(NC(=O)c2cc(OC)c(OC)c(OC)c2)cc1	> 100%
CCNS(=O)(=O)c1cc(-c2ccc(=O)[nH]n2)sc1C	73.5%
COc1cccc(CN2CCC(C(=O)N3CCN(Cc4ccc5c(c4)OCO5)CC3)CC2)c1OC	84%
Fc1cc(F)cc(-c2cc3cc(-c4ccccc4)[nH]c3cn2)c1	79.7%
CCOC(=O)c1cc(CC)sc1NC(=O)COC	0.201%
O=C(NC1CCOC2(CCS(=O)(=O)C2)C1)c1cccc2cc[nH]c12 (centres unmarked)	> 100%

Study 3
SMILES: O=c1cc(N2CCOCC2)oc2c(-c3ccccc3)cccc12
Effect on: enzyme activity
Action: inhibitor
Tested at: 0.5 µM
Reference: control
target	remaining activity
Ribosomal protein S6 kinase alpha-3 (RPS6KA3, Homo sapiens, UniProt P51812)	98.1%
SRSF protein kinase 1 (SRPK1, Homo sapiens, UniProt Q96SB4)	104%
Tyrosine-protein kinase Tec (TEC, Homo sapiens, UniProt P42680)	107%
Calcium/calmodulin-dependent protein kinase kinase 1 (CAMKK1, Homo sapiens, UniProt Q8N5S9)	105%
Tyrosine-protein kinase JAK1 (JAK1, Homo sapiens, UniProt P23458)	108%
Serine/threonine-protein kinase SIK2 (SIK2, Homo sapiens, UniProt Q9H0K1)	96.8%
Calcium/calmodulin-dependent protein kinase type 1 (CAMK1, Homo sapiens, UniProt Q14012)	96.7%
Dual specificity protein kinase CLK1 (CLK1, Homo sapiens, UniProt P49759)	112%
Serine/threonine-protein kinase PAK 1 (PAK1, Homo sapiens, UniProt Q13153)	97.8%

Mixed results
SMILES	target	assay	system	setting	quantity	result
O=C1CCC(N2Cc3cc(C4CCN(Cc5ccccc5)CC4)ccc3C2=O)C(=O)N1 (centres unmarked)	Voltage-gated inwardly rectifying potassium channel KCNH2 (KCNH2, Homo sapiens, UniProt Q12809)	potassium current, inhibitor, manual patch clamp	HEK293 stably transfected with hERG	measured concentrations	IC50	8.96 µM

A few entries again (study 1):
Structure (SMILES)	inhibition [%]
CCC(F)(F)c1cc(N2CCC(S(C)(=O)=O)CC2)nc2sc(C(N)=O)c(N)c12	-0.02
COc1cc(N[C@@H]2CCCC[C@]2(O)C(F)(F)F)ccc1F	0.41
CCc1ccccc1C(=O)Nc1n[nH]c2c(C)c(F)c(C3C(C#N)=C(C)N(C)C(C)=C3C#N)cc12	-9.38
